# Experimental data of several laboratories.
# A part holds a random share of what one study measured. Positions count from the first letter of the parent shown.

# Study 1 — method: RNA Bind-n-Seq; molecule type: RNA; sample: in vitro; concentration: not given; reference: input RNA pool; direction: higher = stronger binding
# Target: RING finger protein unkempt homolog, zinc fingers 1-6, GST-SBP tag (UNK, Homo sapiens, UniProt Q9C0B0, residues 30-357)
# Setting: RNA with constant flanks, human-mouse chimeric sites, ends assumed
# All sequences stand within: GGGAGUUCUACAGUCCGACGAUC … CAACAGAGGAUUGAGCAUCA
# Construct (chain): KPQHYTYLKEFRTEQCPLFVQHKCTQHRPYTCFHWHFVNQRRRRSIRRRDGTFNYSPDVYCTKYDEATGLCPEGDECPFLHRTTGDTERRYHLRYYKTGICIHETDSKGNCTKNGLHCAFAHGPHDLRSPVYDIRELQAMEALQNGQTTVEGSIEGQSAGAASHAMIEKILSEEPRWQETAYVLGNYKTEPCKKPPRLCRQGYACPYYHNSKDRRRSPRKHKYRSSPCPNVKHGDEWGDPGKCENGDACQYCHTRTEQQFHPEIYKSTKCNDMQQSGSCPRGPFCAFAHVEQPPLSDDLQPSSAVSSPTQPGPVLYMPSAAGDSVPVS
Sequence,bound/input enrichment
AAAGUGGACUAUGGCGAGUACAUGGAUAAAAACAAUGUGAGGCGGCAAGCAACAACAAUCAUAGCUGAUAAUAUUAUAUUUCUGAGUGACCAGACAAAAGAAAAGGCGUAGAAAGGAUGA,7.97 ratio
GGAAGUACAAUGAUGGAGAUUGAUGGUGACAAAGGCAAGCAGGGCGGUCCCACCUACUACAUAGACACCAAUGCCCUCCGCGUGCCCAGGGAGAAUAUGGAGGCCAUCUCACCACUCAAG,0.245 ratio
AAAGCCCAAGUAUUUUGAAAAAACUCGAACAGAUUUAUCAAGGGUAACCAGCUUGGAGUCUAGCAACUUGCCAAUGUGUUUACCAAUCUGGGGGCUUGUUUUUCUUUUCUUCUUUCAAAU,0.224 ratio
UGGCGCCUGCGCUCCCCACUCGUGUUUUUAAGUGUAUUUUUAUAAGAUACAUGUAUUUGUAAUAGAUCUUUUGUUACAUAAUGCUGAAAUGCUACUGGAGAUUAUGAAAAAUGUUUCAAU,0.395 ratio
ACCUCCCCCUCCCGCCUCACCCCACCCCCGCUUUUUGAAAGUGUGUUGGCGUUUCUUUUCCUUCCCCAGUUAGAAUUAUUACAGUUUCCCCCGCAAGGGUCUAUCGAAGGGCUUGACGGA,10.4 ratio
GAAUCCUACUCAGGCGGAUUUUGCAACACCAAGCUCACAGCAGCAGCAUCUUAGUCACAGUAGGGUAGUUUUGGGGCUCUGUGGCCAUGGUUUUACUCAUGUGCAGGUUUGGAAAAUGUA,1.68 ratio
AGAGAUAAAGCAUCUAGGAACAUGCGAGGCUCCCGGAUGAAUGGGUUGCCUAGCCCCACUCACAGCGCCCACUGUAGCUUCUACCGAACCAGAACCUUGCAGGCACUGAGUAAUGAGAAG,0.105 ratio
AAUGUGGAGUUGAGUUCCUUGGCCCGGCUUCCCAGCUUGAAUAAACUUCGAAAAUUGGAACUUAGUGACAAUAUAAUUUCUGGAGGCUUGGAAGUCCUGGCAGAGAAAUGUCCAAAUCUU,0.764 ratio
AUAGAUGAAAUUGAUGUGGACCAGGAAGGAAUUGCUGAAAUGAUCCUGGAUGAAAAUGCUAUUGCUCAAGUUCCACGCCCUGGCACAUCUUUGAAGCUCCCUGGAACUAACCAAACAGGA,0.4 ratio
GAGCGUCUCGCUCGAACUGGGAUCAUCGUGACCACUAGUGAGGCUGUCCUCCUACAGCUGGUAGCUGACAAAGACCACCCGAAGUUCAAGGAAAUUCAGAACCUAAUUAAGGCGAGUGCC,0.165 ratio
CGAGACAAGACAUCCAGGAACAUGCGAGGCUCCCGGAUGAAUGGGUUGCCUAGCCCCACUCAUAGUGCCCACUGUAGCUUCUACCGAACCAGAACCUUGCAGGCACUGAGUAAUGAGAAG,0.0773 ratio

# Study 2 — method: RNA Bind-n-Seq; molecule type: RNA; sample: in vitro; concentration: 20 nM; setting: 6-mer, flanks averaged, single round; with: 150 mM LiCl; reference: input library; direction: higher = stronger binding
# Target: TAR DNA-binding protein 43, full length, His tag (TARDBP, Homo sapiens, UniProt Q13148, residues 1-414)
Sequence,6-mer enrichment (R)
AACUCU,0.914
CCCCUU,1.31
GAUAAG,0.949
UUGCAU,0.994
CGUCGA,0.938
UACAAA,0.833
AGCCGC,0.931
CCUAGC,0.88
GGUGUC,1.11
CAACGG,0.821
AGAUAC,0.807
CCAGGG,1.03
GUGCGG,1.32
CCAUAC,0.88
CUGUAC,0.892
CUAAGC,0.817
AUGACC,0.868
GCUGGC,0.991
UGUCCC,1.09
CCAAGU,0.909
AAUUAU,1.08
AACUAU,0.901
GGUGCC,1.09
UGCUAG,0.99

# Study 3 — method: DHFR PCA, deep sequencing; sample: yeast; with: (+)-ABA 0 µM; reference: wild-type fitted maximum; direction: higher = stronger binding
# Target: ABI1, truncated, D143A, DHFR fusion (Arabidopsis thaliana)
# Setting: methotrexate growth selection, single substitutions
# Parent: PYL1, truncated, DHFR fusion (Arabidopsis thaliana); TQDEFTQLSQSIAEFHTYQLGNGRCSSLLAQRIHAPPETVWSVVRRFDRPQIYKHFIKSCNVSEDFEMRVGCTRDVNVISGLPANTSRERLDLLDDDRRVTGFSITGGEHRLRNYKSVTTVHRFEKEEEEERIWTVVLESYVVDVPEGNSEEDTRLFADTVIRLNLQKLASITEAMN
Variant,relative binding score [%]
E89W,6.86
S63K,21.1
L112H,-1.13
K54P,3.16
F66I,-2.23
R24N,3.81
L138A,2.88
M176S,3.93
P83I,4.29
V78P,0.321
L20C,35.2
N77Y,32.9
R111C,10.5
I57T,-1.7
E64T,20
K54W,-0.132
T120H,-4.03
T39E,6.76
Y53D,-0.279
L91H,-2.63
E67M,4.99
N61R,43.4

# Study 4 — method: protein binding microarray; molecule type: double-stranded DNA, one strand shown; sample: in vitro; concentration: not given; reference: not given; direction: higher = stronger binding
# Target: Histone acetyltransferase KAT6A, both winged helices, GST fusion (KAT6A, Homo sapiens, UniProt Q92794, residues 1-181)
# Setting: 8-mer, flanks averaged, mean of 2 arrays, mostly near background
# Target sequence (chain): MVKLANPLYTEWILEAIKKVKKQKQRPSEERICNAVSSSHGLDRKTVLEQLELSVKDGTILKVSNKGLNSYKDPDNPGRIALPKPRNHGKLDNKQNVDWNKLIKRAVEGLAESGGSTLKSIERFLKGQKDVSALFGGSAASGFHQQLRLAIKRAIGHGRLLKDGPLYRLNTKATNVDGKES
Sequence,E-score
ATAATATC,-1e-05
GTAATCAC,-0.0671
GAAATCTC,-0.0143
ACATATAG,-0.00725
ACCGACCT,-0.00029
AGCAGTGG,-0.115
ATCAAATG,0.00291
CCATAGGC,0.0991
GGTGCCCA,-0.0916
GTTCTCCA,-0.161
AGCAGCAG,-0.25
AATTAGTG,-0.0641
ACATGGAC,-0.0975
GACAACCC,-0.0188
GAACCTAA,0.0358
ATAGAGAA,-0.186
AGCGGTGA,0.204
ATGCCCTC,-0.126
CGTGAGTA,0.0109
CAGTCAGC,-0.0531
CAGAATTC,-0.0305
CTCAGTCC,-0.0972
TGGACGAA,0.0832

# Study 5 — target: CCND1, cyclin fold, Cln2 fusion (human); method: yeast growth competition, sequencing; sample: yeast; setting: weak parent motif; reference: not given; direction: higher = stronger binding
# Parent: SAMHD1 docking peptide (human); ASKSRVQLFKDDP
Variant,normalised enrichment score
ASKSRVQLFKDSP [D12S],0.572
ASKSKVQLFKDDP [R5K],0.917
ARKSRVQLFKDDP [S2R],-0.295
ASKSRNQLFKDDP [V6N],-0.00957
ASKSRVQLFKEDP [D11E],0.747
ASKSRVQLFKPDP [D11P],0.391
ASKSRAQLFKDDP [V6A],0.294
ASKSRVQLSKDDP [F9S],0.00696
ASVSRVQLFKDDP [K3V],0.318
AEKSRVQLFKDDP [S2E],0.333
ASKSRVVLFKDDP [Q7V],0.38
ASKSRVELFKDDP [Q7E],0.572
ASKSRVLLFKDDP [Q7L],0.375
AWKSRVQLFKDDP [S2W],0.53
ASKSRVQLFKYDP [D11Y],0.141
ASKSRVPLFKDDP [Q7P],0.12
ASKSRVQLDKDDP [F9D],0.444
ASKSRVQLFGDDP [K10G],0.275
ASKSMVQLFKDDP [R5M],0.968
ASTSRVQLFKDDP [K3T],0.505
ASKSRVQPFKDDP [L8P],0.0889
ASKSRVQLCKDDP [F9C],0.0554
ASKSRVQLRKDDP [F9R],-0.112
ASKSGVQLFKDDP [R5G],0.358
ASKSRVQFFKDDP [L8F],0.078

# Study 6 — method: protein-binding microarray; molecule type: double-stranded DNA, one strand shown; sample: in vitro; concentration: 2540 nM top; setting: 60-bp whole probe; with: salmon DNA 0.4 mg/ml; reference: random background probes; direction: higher = stronger binding; all sequences stand within: GCCTAGCAC … GTCTTGATTCGCTTGACGCTGCTG
# Target: Interferon regulatory factor 3, full length, phosphomimetic (IRF3, Homo sapiens, UniProt Q14653, residues 1-427, S386D/S396D/S398D/S402D/T404D/S405D)
# UniProt Q14653, sequence (whole entry, unmodified, looked up): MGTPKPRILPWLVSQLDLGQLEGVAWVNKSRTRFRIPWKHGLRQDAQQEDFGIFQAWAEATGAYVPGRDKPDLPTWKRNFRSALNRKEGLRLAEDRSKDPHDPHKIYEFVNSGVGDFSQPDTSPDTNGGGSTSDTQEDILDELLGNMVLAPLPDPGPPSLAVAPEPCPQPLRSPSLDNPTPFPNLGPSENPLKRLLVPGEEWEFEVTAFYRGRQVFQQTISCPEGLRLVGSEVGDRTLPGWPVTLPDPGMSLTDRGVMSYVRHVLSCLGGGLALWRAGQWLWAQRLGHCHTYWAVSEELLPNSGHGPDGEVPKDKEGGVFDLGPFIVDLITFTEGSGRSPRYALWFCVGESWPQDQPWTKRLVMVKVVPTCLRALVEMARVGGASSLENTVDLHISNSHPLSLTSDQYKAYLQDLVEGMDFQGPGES
Sequence,fitted relative affinity [z-score]
AACGAACTGGGGTATCGAGACGTGCTA,-0.487
GACGGTTTCGACACAGGGGACGTGCTA,2.95
TGAGGACTGGGTATCGGTTAGTGCTAG,0.221
TTTTCTCTCCCATTCTGAATGTGCTAG,3.46
TTAGGTTTCGGGCTGGGTTAGTGCTAG,2.48
GACGGACTGCTTTTACTGACGTGCTAG,-0.296
TTAGAGATCAGTTTCGATTAGTGCTAG,4.64
TCAAGTTTAATATCTAAGACTGTGCTA,-0.228
GACGGTATCCTTTTCTTGACGTGCTAG,7.5
GTTGTACTTTCTATCTCTGTGTGCTAG,3.52
TTAGGACTGCTTCTCTTTTAGTGCTAG,0.346
TTAGATCTCGGTTTCGATTAGTGCTAG,3.71
GACGATCTCAGTTTAGAGACGTGCTAG,0.925
TTGGGTCTCCTTCTCCTTTAGTGCTAG,3.04
TCAAATGATTGGTTGAAACTGTGCTAG,-0.247
GACGGTATCCTACTGCTGGCGTGCTAG,2.73

# Single results of other studies
Molecule,target,assay,system,setting,scale,measurement,value
"PhoQ, residues 284 288 289 292 302 303 AAQSYM","PhoP, residues 12 14 15 18 19 TPWLV (Escherichia coli, UniProt P23836)","Sort-seq, item: YFP reporter",E. coli,"PhoQ-PhoP variant library, with: 10 µM Mg2+","reference: high Mg2+ state, higher = stronger signaling",fold induction,1.07

# Some of these lines once more (study 5):
Variant,normalised enrichment score
ASKSRVQLFKEDP [D11E],0.747
AEKSRVQLFKDDP [S2E],0.333
ASKSMVQLFKDDP [R5M],0.968
ASKSRVQFFKDDP [L8F],0.078
ASKSRVVLFKDDP [Q7V],0.38
ARKSRVQLFKDDP [S2R],-0.295
ASKSRVQLSKDDP [F9S],0.00696
ASKSRVQLDKDDP [F9D],0.444
ASKSRVQLFKDSP [D12S],0.572
ASKSRVLLFKDDP [Q7L],0.375
ASVSRVQLFKDDP [K3V],0.318
ASKSRVQLCKDDP [F9C],0.0554
ASKSRVQLFKYDP [D11Y],0.141
ASTSRVQLFKDDP [K3T],0.505
ASKSRVQLFKPDP [D11P],0.391
ASKSRVQLFGDDP [K10G],0.275
ASKSGVQLFKDDP [R5G],0.358
ASKSKVQLFKDDP [R5K],0.917
